Assay results pooled from the literature.
A part holds a random share of what one study measured. Several values in a cell are separate wells, animals, samples, runs or records.
Chain of UniProt P09619 (whole entry, looked up): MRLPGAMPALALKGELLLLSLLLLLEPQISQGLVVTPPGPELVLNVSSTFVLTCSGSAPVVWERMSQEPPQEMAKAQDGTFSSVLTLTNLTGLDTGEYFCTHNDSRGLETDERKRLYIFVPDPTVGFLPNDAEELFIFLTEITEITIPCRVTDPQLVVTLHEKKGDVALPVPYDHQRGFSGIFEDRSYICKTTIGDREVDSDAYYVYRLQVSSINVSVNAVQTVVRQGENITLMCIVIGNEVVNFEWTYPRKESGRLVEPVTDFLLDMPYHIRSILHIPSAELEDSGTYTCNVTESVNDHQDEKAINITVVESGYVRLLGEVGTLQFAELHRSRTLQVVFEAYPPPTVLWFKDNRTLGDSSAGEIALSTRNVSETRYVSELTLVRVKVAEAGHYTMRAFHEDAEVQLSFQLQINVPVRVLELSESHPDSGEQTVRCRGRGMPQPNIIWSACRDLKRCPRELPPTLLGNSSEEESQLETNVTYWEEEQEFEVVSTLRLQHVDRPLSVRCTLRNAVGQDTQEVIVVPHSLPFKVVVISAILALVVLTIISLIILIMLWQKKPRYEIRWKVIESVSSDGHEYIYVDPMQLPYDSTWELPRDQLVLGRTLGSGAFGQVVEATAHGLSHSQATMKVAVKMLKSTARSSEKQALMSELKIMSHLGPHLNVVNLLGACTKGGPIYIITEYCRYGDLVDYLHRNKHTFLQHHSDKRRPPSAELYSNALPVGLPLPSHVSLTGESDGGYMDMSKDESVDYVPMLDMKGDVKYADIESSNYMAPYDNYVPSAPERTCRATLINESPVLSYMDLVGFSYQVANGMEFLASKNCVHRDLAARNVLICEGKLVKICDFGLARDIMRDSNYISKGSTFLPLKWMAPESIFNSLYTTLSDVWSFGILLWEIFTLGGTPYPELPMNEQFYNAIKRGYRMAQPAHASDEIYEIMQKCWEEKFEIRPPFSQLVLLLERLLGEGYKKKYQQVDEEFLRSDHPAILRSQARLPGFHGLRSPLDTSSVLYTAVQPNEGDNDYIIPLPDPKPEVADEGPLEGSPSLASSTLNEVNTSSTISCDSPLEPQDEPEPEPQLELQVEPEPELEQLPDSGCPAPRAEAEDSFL
Chain of UniProt Q15831 (whole entry, looked up): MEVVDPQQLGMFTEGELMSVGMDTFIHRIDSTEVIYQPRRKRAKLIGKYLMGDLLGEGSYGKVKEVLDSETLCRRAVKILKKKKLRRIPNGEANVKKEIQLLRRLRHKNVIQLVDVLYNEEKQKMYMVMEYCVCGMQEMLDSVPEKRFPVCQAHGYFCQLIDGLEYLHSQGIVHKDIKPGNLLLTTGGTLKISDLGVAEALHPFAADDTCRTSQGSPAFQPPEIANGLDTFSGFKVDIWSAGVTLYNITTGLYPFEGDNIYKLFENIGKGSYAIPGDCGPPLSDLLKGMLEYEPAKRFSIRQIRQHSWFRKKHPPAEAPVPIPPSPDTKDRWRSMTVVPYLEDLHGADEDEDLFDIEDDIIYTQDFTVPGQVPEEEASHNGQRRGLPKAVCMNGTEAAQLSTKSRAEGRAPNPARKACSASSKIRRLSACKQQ
Chain of UniProt Q9UBE8 (whole entry, looked up): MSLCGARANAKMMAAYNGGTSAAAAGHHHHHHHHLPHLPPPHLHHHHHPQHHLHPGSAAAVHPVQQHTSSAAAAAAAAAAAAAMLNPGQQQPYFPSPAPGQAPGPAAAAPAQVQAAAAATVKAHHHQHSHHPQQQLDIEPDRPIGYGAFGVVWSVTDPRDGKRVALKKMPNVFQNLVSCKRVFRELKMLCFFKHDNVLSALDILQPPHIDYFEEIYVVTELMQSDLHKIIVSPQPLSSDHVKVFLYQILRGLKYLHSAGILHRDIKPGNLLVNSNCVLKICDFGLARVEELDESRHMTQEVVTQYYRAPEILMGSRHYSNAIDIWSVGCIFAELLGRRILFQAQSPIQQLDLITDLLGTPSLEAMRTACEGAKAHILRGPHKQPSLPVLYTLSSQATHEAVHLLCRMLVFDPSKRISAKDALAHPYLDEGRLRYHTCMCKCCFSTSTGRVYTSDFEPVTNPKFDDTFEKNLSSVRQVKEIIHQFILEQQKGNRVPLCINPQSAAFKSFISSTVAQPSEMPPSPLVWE
Chain of UniProt P53667 (whole entry, looked up): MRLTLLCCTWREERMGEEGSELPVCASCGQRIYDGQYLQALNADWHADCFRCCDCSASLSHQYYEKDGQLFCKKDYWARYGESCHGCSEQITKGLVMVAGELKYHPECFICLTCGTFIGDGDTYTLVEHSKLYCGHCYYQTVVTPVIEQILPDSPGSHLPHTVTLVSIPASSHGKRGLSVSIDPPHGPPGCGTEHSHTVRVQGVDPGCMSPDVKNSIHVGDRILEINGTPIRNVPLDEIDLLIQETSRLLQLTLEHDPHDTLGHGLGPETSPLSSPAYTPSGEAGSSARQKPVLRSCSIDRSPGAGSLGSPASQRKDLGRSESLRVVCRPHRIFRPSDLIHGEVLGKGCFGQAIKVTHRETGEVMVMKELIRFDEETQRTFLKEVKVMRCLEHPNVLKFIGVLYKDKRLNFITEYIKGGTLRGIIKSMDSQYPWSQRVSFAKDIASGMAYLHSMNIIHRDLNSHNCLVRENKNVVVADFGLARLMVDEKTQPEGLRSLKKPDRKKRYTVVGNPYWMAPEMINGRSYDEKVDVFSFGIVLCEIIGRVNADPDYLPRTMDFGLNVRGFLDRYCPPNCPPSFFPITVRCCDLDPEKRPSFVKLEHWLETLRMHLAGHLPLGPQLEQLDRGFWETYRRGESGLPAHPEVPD
Chain of UniProt Q8N4C8 (whole entry, looked up): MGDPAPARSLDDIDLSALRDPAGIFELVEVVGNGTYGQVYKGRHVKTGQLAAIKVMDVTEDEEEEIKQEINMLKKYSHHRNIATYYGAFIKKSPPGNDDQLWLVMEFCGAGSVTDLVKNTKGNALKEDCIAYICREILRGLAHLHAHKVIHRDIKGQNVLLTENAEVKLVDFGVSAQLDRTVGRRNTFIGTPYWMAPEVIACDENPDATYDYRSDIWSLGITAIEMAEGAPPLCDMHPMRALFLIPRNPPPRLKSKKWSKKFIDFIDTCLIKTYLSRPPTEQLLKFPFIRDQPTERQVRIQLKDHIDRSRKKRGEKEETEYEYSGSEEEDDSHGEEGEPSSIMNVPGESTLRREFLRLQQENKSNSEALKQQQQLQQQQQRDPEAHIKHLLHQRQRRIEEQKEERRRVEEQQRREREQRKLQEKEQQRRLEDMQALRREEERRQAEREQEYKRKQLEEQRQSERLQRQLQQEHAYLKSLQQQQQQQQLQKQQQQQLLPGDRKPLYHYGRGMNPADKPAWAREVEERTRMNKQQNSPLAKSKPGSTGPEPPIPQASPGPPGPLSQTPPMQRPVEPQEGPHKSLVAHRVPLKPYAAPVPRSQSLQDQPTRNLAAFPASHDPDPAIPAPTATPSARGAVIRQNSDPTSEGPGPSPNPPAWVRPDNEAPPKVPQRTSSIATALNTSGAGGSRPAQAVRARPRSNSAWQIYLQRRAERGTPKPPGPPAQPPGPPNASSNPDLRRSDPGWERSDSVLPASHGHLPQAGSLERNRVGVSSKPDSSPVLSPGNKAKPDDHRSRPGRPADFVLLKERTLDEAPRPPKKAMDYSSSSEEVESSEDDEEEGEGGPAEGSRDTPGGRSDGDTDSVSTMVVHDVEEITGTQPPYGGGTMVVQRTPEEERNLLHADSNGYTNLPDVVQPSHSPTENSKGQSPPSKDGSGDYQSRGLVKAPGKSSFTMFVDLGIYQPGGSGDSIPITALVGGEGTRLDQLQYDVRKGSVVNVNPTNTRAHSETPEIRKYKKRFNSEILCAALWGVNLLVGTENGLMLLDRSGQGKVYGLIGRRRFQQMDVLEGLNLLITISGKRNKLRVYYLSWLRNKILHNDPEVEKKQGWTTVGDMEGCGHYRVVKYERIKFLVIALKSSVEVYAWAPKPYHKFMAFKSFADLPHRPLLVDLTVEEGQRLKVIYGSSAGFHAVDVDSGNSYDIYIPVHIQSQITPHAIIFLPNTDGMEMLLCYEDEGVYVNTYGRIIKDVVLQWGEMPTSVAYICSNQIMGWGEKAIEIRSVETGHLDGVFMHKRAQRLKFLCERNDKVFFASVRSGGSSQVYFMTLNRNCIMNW

Set 1
Compound: Cc1ccc(NC(=O)c2ccnc(C(F)(F)F)c2)cc1-c1cc(OCCO)nc(N2CCOCC2)c1
Tested at: 1 µM
Measurement: remaining binding
Protein-tyrosine kinase 6 (PTK6, Homo sapiens, UniProt Q13882); competitive binding; BRK: 99%
Ribosomal protein S6 kinase beta-1 (RPS6KB1, Homo sapiens, UniProt P23443); competitive binding, scanMAX; S6K1, 1000 nM: 100%
Ephrin type-A receptor 6 (EPHA6, Homo sapiens, UniProt Q9UF33); competitive binding panel; reference: vehicle: 91%
Mitogen-activated protein kinase 13 (MAPK13, Homo sapiens, UniProt O15264); competitive binding, scanMAX; p38-delta, 1000 nM: 93%
Serine/threonine-protein kinase DCLK3 (DCLK3, Homo sapiens, UniProt Q9C098); competitive binding panel, refers to: DCAMKL3; reference: vehicle: 100%

Set 2
Cell line: mouse MPNST tumor cells
Technique: high-content nuclear imaging
Refers to: cell number
Tested at: 10 µM
Time: 12 h
Setting: mean of 2 replicates
Reference: plate mean
Reading: higher = more cells
Measurement: nuclei count
Cc1cc(C)c(C)c(S(=O)(=O)Nc2ccc(N3CC[C@H](C(=O)O)C3)c3ccccc23)c1C: -2.17 z-score
CCOc1nc2cccc(C(=O)O)c2n1Cc1ccc(-c2ccccc2-c2noc(=O)[nH]2)cc1: 0.897 z-score
Cc1c(NC(=O)c2cccnc2)c(=O)n(-c2ccccc2)n1C: 1.07 z-score
CNCCCC1(c2ccccc2)OC(C)(C)c2ccccc21 (stereo not drawn): 3.72 z-score
Cc1c(Nc2ncccc2C(=O)O)cccc1C(F)(F)F: 0.184 z-score
Cc1noc(C)c1-c1cc(O)cc(C(O)c2ccccc2)c1 (stereo not drawn): -1.55 z-score
N=C(N)NCC1COC2(CCCCC2)O1 (stereo not drawn): 0.617 z-score
CC(C)Oc1ncc(-c2nc(-c3cccc4c3ccn4CCCC(=O)O)no2)cc1Cl: 3.12 z-score
c1ccc(CN(CC2=NCCN2)c2ccccc2)cc1: 0.964 z-score

Set 3
SMILES: Cc1nc(N2CC[C@@H](O)C2)ncc1-c1cc(C(F)(F)F)cc2[nH]ncc12
Technique: competition with immobilised ligand
Tested at: 1 µM
Measurement: remaining binding
Serine/threonine-protein kinase NLK (NLK, Homo sapiens, UniProt Q9UBE8); binding: 100%
Aurora kinase A (AURKA, Homo sapiens, UniProt O14965); cell-free assay: 87%
Tyrosine-protein kinase ABL1, non-phosphorylated (ABL1, Homo sapiens, UniProt P00519, Q252H); binding: 91%
SNF-related serine/threonine-protein kinase (SNRK, Homo sapiens, UniProt Q9NRH2); binding: 96%
Serine/threonine-protein kinase DCLK1 (DCLK1, Homo sapiens, UniProt O15075); binding: 100%
SRSF protein kinase 3 (SRPK3, Homo sapiens, UniProt Q9UPE1); binding: 84%
Homeodomain-interacting protein kinase 4 (HIPK4, Homo sapiens, UniProt Q8NE63); binding: 82%
Serine/threonine-protein kinase STK11 (STK11, Homo sapiens, UniProt Q15831); binding: 100%
Platelet-derived growth factor receptor beta (PDGFRB, Homo sapiens, UniProt P09619); cell-free assay: 58%
ALK tyrosine kinase receptor (ALK, Homo sapiens, UniProt Q9UM73, C1156Y); cell-free assay: 100%
cGMP-dependent protein kinase 1 (PRKG1, Homo sapiens, UniProt Q13976); binding: 77%
Serine/threonine-protein kinase 4 (STK4, Homo sapiens, UniProt Q13043); binding: 83%
Discoidin domain-containing receptor 2 (DDR2, Homo sapiens, UniProt Q16832); cell-free assay: 75%
Activin receptor type-2B (ACVR2B, Homo sapiens, UniProt Q13705); binding: 79%
Mitogen-activated protein kinase 9 (MAPK9, Homo sapiens, UniProt P45984); binding: 61%
Receptor-type tyrosine-protein kinase FLT3 (FLT3, Homo sapiens, UniProt P36888, D835V); binding: 58%
Epidermal growth factor receptor (EGFR, Homo sapiens, UniProt P00533, del747-752/P753S); cell-free assay: 83%
cAMP-dependent protein kinase catalytic subunit PRKX (PRKX, Homo sapiens, UniProt P51817); cell-free assay: 97%
Serine/threonine-protein kinase DCLK2 (DCLK2, Homo sapiens, UniProt Q8N568); binding: 100%
MAP kinase-activated protein kinase 5 (MAPKAPK5, Homo sapiens, UniProt Q8IW41); binding: 68%
Cyclin-dependent kinase 11A (CDK11A, Homo sapiens, UniProt Q9UQ88); binding: 100%
Misshapen-like kinase 1 (MINK1, Homo sapiens, UniProt Q8N4C8); binding: 61%
Ephrin type-A receptor 1 (EPHA1, Homo sapiens, UniProt P21709); cell-free assay: 85%
LIM domain kinase 1 (LIMK1, Homo sapiens, UniProt P53667); binding: 85%
Phosphatidylinositol 3-kinase catalytic subunit type 3 (PIK3C3, Homo sapiens, UniProt Q8NEB9); cell-free assay: 63%

Set 4
Target: Calcium/calmodulin-dependent protein kinase type II subunit alpha (CAMK2A, Homo sapiens, UniProt Q9UQM7)
Chain of UniProt Q9UQM7 (whole entry, looked up): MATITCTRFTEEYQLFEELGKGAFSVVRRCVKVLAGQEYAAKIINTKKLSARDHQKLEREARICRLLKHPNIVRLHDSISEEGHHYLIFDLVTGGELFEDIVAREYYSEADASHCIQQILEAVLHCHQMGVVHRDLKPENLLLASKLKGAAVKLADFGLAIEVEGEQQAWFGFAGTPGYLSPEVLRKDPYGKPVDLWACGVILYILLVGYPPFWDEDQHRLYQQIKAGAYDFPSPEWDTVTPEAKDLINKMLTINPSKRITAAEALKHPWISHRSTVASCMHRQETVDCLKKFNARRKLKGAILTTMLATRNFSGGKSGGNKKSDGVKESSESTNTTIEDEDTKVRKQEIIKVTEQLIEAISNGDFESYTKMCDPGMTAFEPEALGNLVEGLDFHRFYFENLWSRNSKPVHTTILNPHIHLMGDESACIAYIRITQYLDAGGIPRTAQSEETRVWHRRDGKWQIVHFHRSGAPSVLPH
Effect on: enzyme activity
Action: inhibitor
Tested at: 10 µM
Measurement: inhibition
CCCCCCC/C=C/C(=O)CCc1ccc(O)c(OC)c1: -42%
Cn1cncc1C[C@H](N)C(=O)O: -13%
O=C(O)CO: 33%
CC1=C(CC(=O)O)c2cc(F)ccc2/C1=C\c1ccc([S+](C)[O-])cc1 (stereo not drawn): 15%
C[C@@]12C[C@@]3(O)O[C@@H](O1)[C@]1(COC(=O)c4ccc(O)cc4)[C@H]3C[C@@]12O[C@@H]1O[C@H](COC(=O)c2ccccc2)[C@@H](O)[C@H](O)[C@H]1O: -23%

Set 5
Target: Eukaryotic initiation factor 4A-III (Homo sapiens, UniProt P38919)
Chain of UniProt P38919 (whole entry, looked up): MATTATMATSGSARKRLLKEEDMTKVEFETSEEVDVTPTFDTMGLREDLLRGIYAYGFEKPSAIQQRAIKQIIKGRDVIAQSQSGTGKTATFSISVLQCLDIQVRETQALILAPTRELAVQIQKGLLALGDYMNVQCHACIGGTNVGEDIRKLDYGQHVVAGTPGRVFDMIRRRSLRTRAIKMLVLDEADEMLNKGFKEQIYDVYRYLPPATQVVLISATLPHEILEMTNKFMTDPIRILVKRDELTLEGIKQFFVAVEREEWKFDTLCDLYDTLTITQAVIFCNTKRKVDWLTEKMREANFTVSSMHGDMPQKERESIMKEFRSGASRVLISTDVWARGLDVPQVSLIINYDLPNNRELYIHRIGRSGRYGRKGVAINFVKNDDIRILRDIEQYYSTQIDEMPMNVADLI
Effect on: RNA clamping
Technique: fluorescence polarization
Tested at: concentration not given
Setting: mean of two replicates
Together with: FAM-labelled poly r(AG)8 RNA
Measurement: fluorescence polarization change
COc1ccc([C@@]23Oc4cc(OC)cc(OC)c4[C@]2(O)c2nc(N4CCOCC4)[nH]c(=O)c2[C@H]3c2ccccc2)cc1: 39 mP and 32.1 mP
C#CCN[C@@]12C(=O)[C@H](C(=O)OC)[C@@H](c3ccccc3)[C@]1(c1ccc(OC)cc1)Oc1cc(OC)cc(OC)c12: 1.9 mP
C=CCN1c2cc(OC)cc(OC)c2[C@]2(O)[C@H](O)[C@H](C(=O)OC)[C@@H](c3ccccc3)[C@]12c1ccc(OC)cc1: 0.4 mP
CCOC(=O)[C@H]1[C@@H](O)[C@@]2(O)c3c(OC)cc(OC)cc3O[C@@]2(c2ccc(OC)cc2)[C@@H]1c1ccc(Br)cc1: 3.2 mP
COc1ccc([C@@]23Oc4cc(OC)cc(OC)c4[C@]2(O)C2=C(C(=O)N4CCC[C@H]4O2)[C@H]3c2ccccc2)cc1: 35.2 mP
CCCN[C@@]12C(=O)[C@H](C(=O)N(C)C)[C@@H](c3ccccc3)[C@]1(c1ccc(OC)cc1)Oc1cc(OC)cc(OC)c12: 1.2 mP
COC(=O)[C@H]1C(=O)[C@@]2(NCCCC(OC)OC)c3c(OC)cc(OC)cc3O[C@@]2(c2ccc(OC)cc2)[C@@H]1c1ccccc1: 16.4 mP

For quick reference, copied from above (set 2):
Cc1c(Nc2ncccc2C(=O)O)cccc1C(F)(F)F: 0.184 z-score
Cc1noc(C)c1-c1cc(O)cc(C(O)c2ccccc2)c1 (stereo not drawn): -1.55 z-score
Cc1cc(C)c(C)c(S(=O)(=O)Nc2ccc(N3CC[C@H](C(=O)O)C3)c3ccccc23)c1C: -2.17 z-score
CCOc1nc2cccc(C(=O)O)c2n1Cc1ccc(-c2ccccc2-c2noc(=O)[nH]2)cc1: 0.897 z-score
CC(C)Oc1ncc(-c2nc(-c3cccc4c3ccn4CCCC(=O)O)no2)cc1Cl: 3.12 z-score
Cc1c(NC(=O)c2cccnc2)c(=O)n(-c2ccccc2)n1C: 1.07 z-score
